# Assay results collected from several papers.
# Lines come from different studies, so protocols differ. ± marks the error that the study gave.
# Tumor necrosis factor receptor superfamily member 9/Nectin-4: Tumor necrosis factor receptor superfamily member 9/Nectin-4 (Homo sapiens, UniProt Q07011+Q96NY8)
# Sequence of UniProt Q96NY8 (whole entry, looked up): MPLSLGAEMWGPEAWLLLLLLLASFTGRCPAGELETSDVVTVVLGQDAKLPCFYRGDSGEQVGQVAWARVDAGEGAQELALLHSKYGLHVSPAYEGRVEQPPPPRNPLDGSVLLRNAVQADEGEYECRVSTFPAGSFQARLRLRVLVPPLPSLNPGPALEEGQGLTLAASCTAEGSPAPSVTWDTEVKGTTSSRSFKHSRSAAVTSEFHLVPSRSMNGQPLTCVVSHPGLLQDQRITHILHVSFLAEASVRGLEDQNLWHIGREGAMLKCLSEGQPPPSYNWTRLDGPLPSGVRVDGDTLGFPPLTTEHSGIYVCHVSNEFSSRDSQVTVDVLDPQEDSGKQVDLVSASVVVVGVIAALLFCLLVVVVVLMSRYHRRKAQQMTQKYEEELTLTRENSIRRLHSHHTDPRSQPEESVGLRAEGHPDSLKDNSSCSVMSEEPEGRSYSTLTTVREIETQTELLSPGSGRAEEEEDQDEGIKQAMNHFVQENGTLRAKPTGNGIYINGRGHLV
# Sequence of UniProt Q07011 (whole entry, looked up): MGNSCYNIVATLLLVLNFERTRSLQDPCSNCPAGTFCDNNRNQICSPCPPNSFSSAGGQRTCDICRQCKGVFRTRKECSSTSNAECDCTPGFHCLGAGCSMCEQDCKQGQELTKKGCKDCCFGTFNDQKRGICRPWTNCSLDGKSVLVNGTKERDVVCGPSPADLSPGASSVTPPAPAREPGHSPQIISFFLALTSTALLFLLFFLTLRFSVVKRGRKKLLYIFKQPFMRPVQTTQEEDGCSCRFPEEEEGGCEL
# sdiA: Regulatory protein SdiA (sdiA, Escherichia coli, UniProt P07026)
# Sequence of UniProt P07026 (whole entry, looked up): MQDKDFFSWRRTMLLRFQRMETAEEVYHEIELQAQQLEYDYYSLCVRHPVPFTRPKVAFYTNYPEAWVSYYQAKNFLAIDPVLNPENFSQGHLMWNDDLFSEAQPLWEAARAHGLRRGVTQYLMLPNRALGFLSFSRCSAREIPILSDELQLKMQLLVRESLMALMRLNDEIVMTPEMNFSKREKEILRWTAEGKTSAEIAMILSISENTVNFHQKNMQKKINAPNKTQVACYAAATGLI
# Sequence of UniProt P07700 (whole entry, unmodified, looked up): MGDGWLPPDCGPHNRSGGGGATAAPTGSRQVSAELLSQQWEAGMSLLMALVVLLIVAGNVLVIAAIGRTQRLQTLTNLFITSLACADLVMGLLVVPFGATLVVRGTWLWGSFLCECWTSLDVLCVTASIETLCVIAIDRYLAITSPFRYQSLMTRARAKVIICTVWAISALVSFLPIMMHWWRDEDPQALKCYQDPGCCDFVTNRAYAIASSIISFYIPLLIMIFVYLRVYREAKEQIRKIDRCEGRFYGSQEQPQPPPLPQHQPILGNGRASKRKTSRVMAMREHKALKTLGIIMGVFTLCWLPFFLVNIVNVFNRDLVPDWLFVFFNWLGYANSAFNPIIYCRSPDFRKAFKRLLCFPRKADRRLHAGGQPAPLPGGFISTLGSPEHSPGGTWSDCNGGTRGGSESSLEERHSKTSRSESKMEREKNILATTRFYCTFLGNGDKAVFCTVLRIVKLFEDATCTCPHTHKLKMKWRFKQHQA
# Sequence of UniProt P35579 (whole entry, looked up): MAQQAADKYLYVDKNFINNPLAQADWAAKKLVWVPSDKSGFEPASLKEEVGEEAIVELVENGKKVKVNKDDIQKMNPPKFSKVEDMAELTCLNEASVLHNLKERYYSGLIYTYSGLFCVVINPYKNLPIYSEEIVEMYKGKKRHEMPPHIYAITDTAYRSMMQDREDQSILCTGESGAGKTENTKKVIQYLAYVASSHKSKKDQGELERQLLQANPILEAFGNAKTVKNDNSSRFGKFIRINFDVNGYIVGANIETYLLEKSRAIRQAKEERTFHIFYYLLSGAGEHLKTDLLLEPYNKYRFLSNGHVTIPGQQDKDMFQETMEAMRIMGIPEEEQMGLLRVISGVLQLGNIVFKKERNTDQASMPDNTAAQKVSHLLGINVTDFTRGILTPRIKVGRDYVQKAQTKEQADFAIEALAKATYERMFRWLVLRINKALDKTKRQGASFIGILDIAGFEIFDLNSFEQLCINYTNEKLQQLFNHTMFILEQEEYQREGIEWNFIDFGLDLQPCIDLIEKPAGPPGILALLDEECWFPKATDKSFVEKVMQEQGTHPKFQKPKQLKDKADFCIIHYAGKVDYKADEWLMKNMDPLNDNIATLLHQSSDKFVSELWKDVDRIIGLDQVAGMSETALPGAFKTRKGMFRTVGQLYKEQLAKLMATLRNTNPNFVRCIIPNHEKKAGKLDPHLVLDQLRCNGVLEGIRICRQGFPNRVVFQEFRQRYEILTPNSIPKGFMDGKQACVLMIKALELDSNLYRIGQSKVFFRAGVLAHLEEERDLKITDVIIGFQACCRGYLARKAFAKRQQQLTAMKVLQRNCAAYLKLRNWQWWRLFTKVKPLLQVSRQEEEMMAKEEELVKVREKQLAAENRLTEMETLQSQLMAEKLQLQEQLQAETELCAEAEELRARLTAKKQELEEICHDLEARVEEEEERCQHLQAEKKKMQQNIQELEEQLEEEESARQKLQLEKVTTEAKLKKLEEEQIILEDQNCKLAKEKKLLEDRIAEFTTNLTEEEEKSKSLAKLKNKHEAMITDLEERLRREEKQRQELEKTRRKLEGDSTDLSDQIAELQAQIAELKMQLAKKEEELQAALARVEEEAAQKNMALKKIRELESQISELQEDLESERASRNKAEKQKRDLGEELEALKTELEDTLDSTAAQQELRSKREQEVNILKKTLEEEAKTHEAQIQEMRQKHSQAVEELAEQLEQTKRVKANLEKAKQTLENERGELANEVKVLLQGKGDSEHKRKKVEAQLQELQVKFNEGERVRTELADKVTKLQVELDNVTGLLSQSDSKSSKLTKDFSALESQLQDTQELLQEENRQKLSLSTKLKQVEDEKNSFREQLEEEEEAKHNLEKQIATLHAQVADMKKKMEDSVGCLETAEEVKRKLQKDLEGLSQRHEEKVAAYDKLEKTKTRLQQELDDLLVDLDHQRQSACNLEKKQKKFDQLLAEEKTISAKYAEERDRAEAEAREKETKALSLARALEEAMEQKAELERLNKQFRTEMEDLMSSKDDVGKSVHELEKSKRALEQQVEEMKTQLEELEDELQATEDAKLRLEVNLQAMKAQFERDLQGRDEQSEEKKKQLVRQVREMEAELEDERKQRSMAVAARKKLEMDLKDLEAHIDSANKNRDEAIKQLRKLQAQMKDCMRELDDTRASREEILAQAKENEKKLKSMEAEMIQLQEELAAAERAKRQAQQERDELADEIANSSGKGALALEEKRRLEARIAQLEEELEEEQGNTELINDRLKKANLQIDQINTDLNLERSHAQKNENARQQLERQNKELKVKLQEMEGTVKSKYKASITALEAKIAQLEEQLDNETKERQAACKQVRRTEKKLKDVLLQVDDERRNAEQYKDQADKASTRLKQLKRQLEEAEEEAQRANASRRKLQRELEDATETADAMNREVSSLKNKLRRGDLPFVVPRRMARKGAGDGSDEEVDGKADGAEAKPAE
# Sequence of UniProt P34972 (whole entry, looked up): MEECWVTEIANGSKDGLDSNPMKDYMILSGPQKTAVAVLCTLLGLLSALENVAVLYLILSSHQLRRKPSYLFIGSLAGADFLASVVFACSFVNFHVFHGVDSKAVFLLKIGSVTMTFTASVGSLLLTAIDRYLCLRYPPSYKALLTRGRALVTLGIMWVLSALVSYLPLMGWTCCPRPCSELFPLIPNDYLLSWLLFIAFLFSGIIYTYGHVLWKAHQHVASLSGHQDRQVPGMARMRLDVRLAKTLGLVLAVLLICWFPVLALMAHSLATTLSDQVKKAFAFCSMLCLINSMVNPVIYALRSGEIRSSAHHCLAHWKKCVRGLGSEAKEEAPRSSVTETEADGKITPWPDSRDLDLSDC
# Sequence of UniProt P01899 (whole entry, looked up): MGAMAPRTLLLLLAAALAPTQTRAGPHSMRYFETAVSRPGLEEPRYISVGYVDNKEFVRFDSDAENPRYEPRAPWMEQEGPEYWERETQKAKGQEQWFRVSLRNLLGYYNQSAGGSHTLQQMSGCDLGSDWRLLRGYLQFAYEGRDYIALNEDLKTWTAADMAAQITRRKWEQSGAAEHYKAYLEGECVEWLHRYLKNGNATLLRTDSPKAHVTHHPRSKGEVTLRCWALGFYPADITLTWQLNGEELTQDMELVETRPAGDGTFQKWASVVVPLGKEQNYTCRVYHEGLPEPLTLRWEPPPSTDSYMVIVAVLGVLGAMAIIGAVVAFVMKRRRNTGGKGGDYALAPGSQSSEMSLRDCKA
SMILES,target or system,assay,test system,conditions,how to read,quantity,value
COc1cc(C(=O)N2CC[C@@H](O)[C@@H](N)C2)cc2nc(-c3cc4ccccc4n3CC3CC3)n(C)c12,"Cannabinoid receptor 2 (CNR2, Homo sapiens, UniProt P34972)","agonist, yeast FDGlu reporter",yeast,,,EC50,> 31600 nM
CC[C@H](C)[C@H](NC(=O)[C@H](C)NC(=O)[C@@H](NC(=O)[C@H](C)NC(=O)[C@H](C)NC(=O)[C@H](CC(N)=O)NC(=O)[C@H](Cc1c[nH]c2ccccc12)NC(=O)[C@@H](NC(=O)[C@H](CO)NC(=O)[C@@H](N)CO)C(C)C)[C@@H](C)O)C(=O)O,"H-2 class I histocompatibility antigen, D-B alpha chain, 17 (H2-D1, Mus musculus, UniProt P01899)","H-2D stabilisation, flow cytometry",RMA-S TAP-deficient,overnight,,EC50,5000 nM
CCCC[C@@H]1NC(=O)[C@H](Cc2ccc(O)cc2)NC(=O)[C@@H]2CCCN2C(=O)[C@H](CC(=O)O)NC(=O)[C@H](C)NC(=O)[C@H](Cc2ccccc2)NC(=O)[C@@H]2CSCCC(=O)N3CN(CN(C3)C(=O)CCSC[C@H](NC(C)=O)C(=O)N[C@@H](CC(C)(C)C)C(=O)N3CCC[C@H]3C(=O)N[C@@H](CCC(=O)O)C(=O)N[C@H](CCCCNC(=O)CCc3cn(CCOCCOCCOCCOCCOCCC(=O)N[C@H]4CSCCC(=O)N5CN6CN(C5)C(=O)CCSC[C@H](NC(=O)[C@@H](CC(=O)O)NC(=O)[C@H](Cc5cccc7ccccc57)NC(=O)[C@@H]5CCCN5C4=O)C(=O)N[C@@H](CCSC)C(=O)N[C@@H](CCCCNC(=N)N)C(=O)N[C@@H](CC(=O)O)C(=O)N[C@@H](Cc4c[nH]c5ccccc45)C(=O)N[C@@H](CO)C(=O)N[C@@H]([C@@H](C)O)C(=O)N4CCC[C@H]4C(=O)N4C[C@H](O)C[C@H]4C(=O)N[C@@H](Cc4c[nH]c5ccccc45)C(=O)N[C@H](C(N)=O)CSCCC6=O)nn3)C(=O)N3CCC[C@H]3C(=O)N[C@@H](Cc3ccc(O)cc3)C(=O)N2)C(=O)CCSCCNC1=O,Tumor necrosis factor receptor superfamily member 9/Nectin-4,"reporter gene, agonist",HT-1376 coculture with reporter cells,,,EC50,3.39 nM
O=C(CCCCCCCCCN=C=S)CC(=O)N[C@H]1CCOC1=O,sdiA,,,,,EC50,4 nM
CCCCNC(=O)C1CCCN(Cc2nc(-c3ccc(Cl)cc3)oc2C)C1 (stereo not shown),Vero-E6,CellTiter-Glo ATP,,"concentration not given, 72 h, retest 8-point duplicates","reference: DMSO 0%, hyamine -100%, more negative, more toxic",cytotoxicity efficacy,-27.6%
COc1ccc(C[C@@H](C)NC[C@H](O)c2ccc(O)c3[nH]c(=O)ccc23)cc1,"ADRB1 (Meleagris gallopavo, UniProt P07700, C116L)","CRE-SPAP reporter gene, agonist",CHO cells,,,EC50,0.603 nM
O=C(C1CCCCC1)N1CC(=O)N2CCc3ccccc3C2C1 (stereo not shown),"TRPM channel (Clonorchis sinensis, UniProt G7YJJ5)",,,,,EC50,850 ± 220 nM
CCCC[C@@H]1NC(=O)[C@H](Cc2ccc(O)cc2)NC(=O)[C@@H]2CCCN2C(=O)[C@H](CC(=O)O)NC(=O)[C@H](C)NC(=O)[C@H](Cc2ccccc2)NC(=O)[C@@H]2CSCCC(=O)N3CN(CN(C3)C(=O)CCSCCC(=O)N[C@@H](CC(C)(C)C)C(=O)N3CCC[C@H]3C(=O)N[C@@H](CCC(=O)O)C(=O)N[C@H](CCCCNC(=O)CCc3cn(CCOCCOCCOCCOCCOCCC(=O)N[C@H]4CSCCC(=O)N5CN6CN(C5)C(=O)CCSC[C@H](NC(=O)[C@@H](CC(=O)O)NC(=O)[C@H](Cc5cccc7ccccc57)NC(=O)[C@@H]5CCCN5C4=O)C(=O)N[C@@H](CCSC)C(=O)N[C@@H](CCCCNC(=N)N)C(=O)N[C@@H](CC(=O)O)C(=O)N[C@@H](Cc4c[nH]c5ccccc45)C(=O)N[C@@H](CO)C(=O)N[C@@H]([C@@H](C)O)C(=O)N4CCC[C@H]4C(=O)N4C[C@H](O)C[C@H]4C(=O)N[C@@H](Cc4c[nH]c5ccccc45)C(=O)N[C@H](C(N)=O)CSCCC6=O)nn3)C(=O)N3CCC[C@H]3C(=O)N[C@@H](Cc3ccc(O)cc3)C(=O)N2)C(=O)CCSCCNC1=O,Tumor necrosis factor receptor superfamily member 9/Nectin-4,"reporter gene, agonist",HT-1376 coculture with reporter cells,,,EC50,5.55 nM
C[C@H]1CN(c2n[nH]c3nc(N[C@H]4CC[C@H](NS(=O)(=O)CCC(F)(F)F)CC4)ncc23)CCO1,"Myosin-9 (MYH9, Homo sapiens, UniProt P35579)",biochemical,,,,IC50,≥ 20000 nM
COc1ccccc1C(=O)NC1CCCN(Cc2cccc(-c3ccc(C)c(Cl)c3)c2)C1 (stereo not shown),Vero-E6,CellTiter-Glo ATP,,"concentration not given, 72 h, retest 8-point duplicates","reference: DMSO 0%, hyamine -100%, more negative, more toxic",cytotoxicity efficacy,-32.3%
Oc1ncnc2[nH]ncc12,human coronavirus OC43,virus-induced cell killing,MRC-5,screen,,maximum inhibition,15.8%
CCCCCCCCCC(=O)N[C@H]1CCOC1=O,sdiA,,,,,EC50,16 nM
CCCC[C@@H]1NC(=O)[C@H](Cc2ccc(O)cc2)NC(=O)[C@@H]2CCCN2C(=O)[C@H](CC(=O)O)NC(=O)[C@H](C)NC(=O)[C@H](Cc2ccccc2)NC(=O)[C@@H]2CSCCC(=O)N3CN(CN(C3)C(=O)CCSC[C@@H](C(=O)N[C@@H](CNC(=O)CCOCCOCCOCCOCCOCCn3cc(CCC(=O)N[C@H]4CSCCC(=O)N5CN6CN(C5)C(=O)CCSC[C@H](NC(=O)[C@@H](CC(=O)O)NC(=O)[C@H](Cc5cccc7ccccc57)NC(=O)[C@@H]5CCCN5C4=O)C(=O)N[C@@H](CCSC)C(=O)N[C@@H](CCCCNC(=N)N)C(=O)N[C@@H](CC(=O)O)C(=O)N[C@@H](Cc4c[nH]c5ccccc45)C(=O)N[C@@H](CO)C(=O)N[C@@H]([C@@H](C)O)C(=O)N4CCC[C@H]4C(=O)N4C[C@H](O)C[C@H]4C(=O)N[C@@H](Cc4c[nH]c5ccccc45)C(=O)N[C@H](C(N)=O)CSCCC6=O)nn3)C(N)=O)NC1=O)C(=O)CCSC[C@H](NC(C)=O)C(=O)N[C@@H](CC(C)(C)C)C(=O)N1CCC[C@H]1C(=O)N[C@@H](CCC(=O)O)C(=O)N[C@H](C)C(=O)N1CCC[C@H]1C(=O)N[C@@H](Cc1ccc(O)cc1)C(=O)N2,Tumor necrosis factor receptor superfamily member 9/Nectin-4,"reporter gene, agonist",HT-1376 coculture with reporter cells,,,EC50,1.54 nM

# A few entries again:
SMILES,target or system,assay,test system,conditions,how to read,quantity,value
CC[C@H](C)[C@H](NC(=O)[C@H](C)NC(=O)[C@@H](NC(=O)[C@H](C)NC(=O)[C@H](C)NC(=O)[C@H](CC(N)=O)NC(=O)[C@H](Cc1c[nH]c2ccccc12)NC(=O)[C@@H](NC(=O)[C@H](CO)NC(=O)[C@@H](N)CO)C(C)C)[C@@H](C)O)C(=O)O,"H-2 class I histocompatibility antigen, D-B alpha chain, 17 (H2-D1, Mus musculus, UniProt P01899)","H-2D stabilisation, flow cytometry",RMA-S TAP-deficient,overnight,,EC50,5000 nM
